Experimental data pooled from the literature.
A part holds a random share of what one study measured.

Study 1
Target: Ras GTPase-activating protein-binding protein 1, C-terminal RGG region (G3BP1, Homo sapiens, UniProt Q13283)
UniProt Q13283, sequence (whole entry, looked up): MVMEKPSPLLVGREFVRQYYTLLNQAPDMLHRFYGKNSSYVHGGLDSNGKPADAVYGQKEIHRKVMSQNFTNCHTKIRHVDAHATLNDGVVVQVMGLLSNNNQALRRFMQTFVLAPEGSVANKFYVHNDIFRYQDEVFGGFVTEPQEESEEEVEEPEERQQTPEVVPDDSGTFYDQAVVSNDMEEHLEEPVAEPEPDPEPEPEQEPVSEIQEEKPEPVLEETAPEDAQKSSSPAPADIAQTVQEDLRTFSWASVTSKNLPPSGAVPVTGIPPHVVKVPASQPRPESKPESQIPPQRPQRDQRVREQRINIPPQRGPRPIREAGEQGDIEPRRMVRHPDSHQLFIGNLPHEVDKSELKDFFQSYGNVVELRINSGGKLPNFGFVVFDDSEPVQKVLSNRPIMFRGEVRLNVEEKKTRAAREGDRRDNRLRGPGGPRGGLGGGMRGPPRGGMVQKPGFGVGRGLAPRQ
Technique: RNA Bind-n-Seq
Form: RNA
Medium: in vitro
Concentration: 1 µM
Setting: whole 134-nt RNA, ends assumed
Added: 150 mM KCl
Relative to: input library
Reading: higher = stronger binding
Endpoint: log2 enrichment
Constant ends, left off below: GGGAGUUCUACAGUCCGACGAUC … UGGAAUUCUCGGGUGUCAAGG
UGGGAGGUGGAUUUUGUUUAUUUUUUUAACUCAUUUCCAGGGGUGGGAAUUUUUUUUUAAUAUGUGUCAUGAAUAAAGUUGUUUUUGAAA: 3.57
UAACUUUAGAGGAGGAUCUGAUGGAUAUGGCAGUGGACGUGGAUUUGGGGAUGGCUAUAAUCGGUAUGGAGGAGGACCUGGAGGUGGCAA: -0.6
CAAGUCCUGUGCUACACAUCGUAUGUACCGAAUCGGGGUGGGGUGGGGUUUGGGGAAAGUAUUAUGUUACGCCGUUCGGAUCUGCACUUC: 2.26
UGGCCCUGGUGGCAUGCGGGGAGGAAGAGGUGGACUCAUGGAUCGUGGUGGUCCCGGUGGAAUGUUCAGAGGUGGCCGUGGUGGAGACAG: 1.7
GCAGGAAGUAAAAACAAAUGGAAAUGCUUCGGAUAGUGGCAGGGGUGUGGGUUGCUAAGGAAAGGGUGGGAUGGGAGUGGGUAAAGAGUU: 1.01
CCUGUGCUACACAUCGUAUGUACCGAAUCGGGGAAAAAAAGGGGAGGGGUUUUUUUGGGGAAAGUAUUAUGUUACGCCGUUCGGAUCUGC: 0.839
GUCCUGUGCUACACAUCGUAUGUACCGAAUCAAACCCCCAAACCCAAAUUUUUUUAAAAAAGUAUUAUGUUACGCCGUUCGGAUCUGCAC: -0.77
UAUAUUGAGGUAUAGAGCUAUUCUUUGUAGGUACCCUGGUGAGACCGAUACAAAUAUGCCCCUCCCCAUAAUGGAAUACUAAUUUUUAUU: -1.13
UGGACGAUGAAGAGGAAACAAUUGAAGAGGAGGAAGCAAAUGAAGGCGUUGUGGACCACCAAACAGAACUUUCUAAUUUAGCCAAGGAAG: -0.537

Study 2
Target: Prothrombin, mature alpha-thrombin (F2, Homo sapiens, UniProt P00734)
Technique: aptamer microarray, sandwich
Form: DNA with 2'F-ANA
Medium: in vitro
Concentration: 200 nM
Setting: whole 15-mer aptamer, many near background
Added: Cy3 exosite-II aptamer, 400 nM
Reading: higher = stronger binding
Endpoint: mean fluorescence intensity
Strand: GGTTGGTGTGGTTGG
2'F-ANA at 1 7 10 11 14 15: 45.7 a.u.
2'F-ANA at 1 3 4 6 9 11 15: 138 a.u.
2'F-ANA at 3 4 5 7 8 9 10 11 12: 60.9 a.u.
2'F-ANA at 1 2 4 6 8 11 12 15: 264 a.u.
2'F-ANA at 1 3 4 5 8 10 12 14 15: 56.4 a.u.
2'F-ANA at 2 4 6 8 9 11 12 15: 404 a.u.
2'F-ANA at 3 7 9 10: 690 a.u.
2'F-ANA at 1 2 3 5 7 8 9 10 11: 70 a.u.
2'F-ANA at 1 2 3 7 8 9 10 12 13 15: 94.6 a.u.
2'F-ANA at 4 8 13 14: 103 a.u.
2'F-ANA at 2 4 5 6 7 9 11: 99.5 a.u.
2'F-ANA at 2 4 6 8 10 11 14 15: 58 a.u.
2'F-ANA at 2 5 7 8 10 12: 64.4 a.u.
2'F-ANA at 1 2 7 12 13: 279 a.u.
2'F-ANA at 2 3 5 6 7 9 13 15: 59.2 a.u.
2'F-ANA at 1 3 4 5 6 8 9 10 11 12 13 15: 52.3 a.u.
2'F-ANA at 1 3 4 9 10 13 14: 56.6 a.u.
2'F-ANA at 5 6 7 8 10 11 13 15: 45.8 a.u.
2'F-ANA at 3 4 5 6 8 10 12 13 15: 61.9 a.u.
2'F-ANA at 9 10 11 12: 200 a.u.
2'F-ANA at 4 5 6 8 9 10 11 15: 45.8 a.u.
2'F-ANA at 4 5 8 9 10 11 12: 73.8 a.u.
2'F-ANA at 2 3 6 7 9 10 11 12: 346 a.u.
2'F-ANA at 1 3 4 6 8 12 13: 324 a.u.
2'F-ANA at 1 4 7 8 9 11: 142 a.u.

Study 3
Target: Sal-like protein 4, full length isoform A (SALL4, Homo sapiens, UniProt Q9UJQ4, residues 1-1053)
UniProt Q9UJQ4, sequence (whole entry, looked up): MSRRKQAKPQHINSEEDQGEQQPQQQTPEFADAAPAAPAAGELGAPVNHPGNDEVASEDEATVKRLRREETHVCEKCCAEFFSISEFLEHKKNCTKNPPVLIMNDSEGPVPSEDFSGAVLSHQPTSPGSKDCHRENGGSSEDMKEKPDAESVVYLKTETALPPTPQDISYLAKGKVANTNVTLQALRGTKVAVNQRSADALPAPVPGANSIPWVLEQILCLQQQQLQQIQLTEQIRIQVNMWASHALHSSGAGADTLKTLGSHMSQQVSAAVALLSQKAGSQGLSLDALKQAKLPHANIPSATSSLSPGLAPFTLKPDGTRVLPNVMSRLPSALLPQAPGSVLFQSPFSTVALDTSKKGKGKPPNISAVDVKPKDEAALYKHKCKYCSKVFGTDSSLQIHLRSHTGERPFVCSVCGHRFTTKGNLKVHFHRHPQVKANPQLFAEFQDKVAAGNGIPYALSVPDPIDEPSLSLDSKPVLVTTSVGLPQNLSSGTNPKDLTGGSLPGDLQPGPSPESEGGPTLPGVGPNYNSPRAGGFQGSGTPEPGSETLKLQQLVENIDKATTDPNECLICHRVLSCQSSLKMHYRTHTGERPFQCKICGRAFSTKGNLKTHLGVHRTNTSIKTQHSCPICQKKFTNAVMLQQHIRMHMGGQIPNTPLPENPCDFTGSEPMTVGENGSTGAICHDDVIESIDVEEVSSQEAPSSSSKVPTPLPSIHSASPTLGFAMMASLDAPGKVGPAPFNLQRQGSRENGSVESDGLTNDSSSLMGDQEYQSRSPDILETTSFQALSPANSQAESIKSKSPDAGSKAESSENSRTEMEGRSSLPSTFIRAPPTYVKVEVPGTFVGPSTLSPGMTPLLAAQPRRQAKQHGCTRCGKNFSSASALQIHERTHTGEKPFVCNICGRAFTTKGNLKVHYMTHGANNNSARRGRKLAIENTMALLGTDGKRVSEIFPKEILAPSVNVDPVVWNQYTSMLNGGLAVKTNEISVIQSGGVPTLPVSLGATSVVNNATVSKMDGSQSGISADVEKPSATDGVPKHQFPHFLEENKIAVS
Technique: universal PBM
Form: double-stranded DNA, one strand shown
Medium: in vitro
Concentration: 600 nM
Setting: 8-mer, flanks averaged, mean of replicates
Reading: higher = stronger binding
Endpoint: E-score
GTTTGTTA: 0.199
CAACTGGG: -0.28
ATAAGCCG: 0.129
CAATTGCC: 0.0722
AGGAATAT: 0.319
TCGACCGA: -0.137
CCCATTCC: -0.265
CTGGACCC: -0.334
ACACATTG: 0.139
ACCTTGCG: -0.0816
CGAGTTCA: -0.136
ATTAACAA: 0.364
AGGCAAGA: 0.128
CCCGGTTA: -0.231
CTCGTTCC: -0.111
CAGTAACA: 0.169
CTACGGTC: -0.308
GCCTAACA: 0.00487
GGGACGAA: -0.125
TAGGAGGA: -0.0238
GCGTTGAA: -0.0857
AACGTTCC: -0.028

Further values, each from its own experiment
GSALKKLFTSTGL — enrichment score (Cln2 (Saccharomyces cerevisiae); peptide binding, competitive growth sequencing; peptide, Saccharomyces cerevisiae, unfused Cln2 strain; mutational scanning library 1; direction not given): -1.55
PhoQ, residues 284 288 289 292 302 303 SMYGEC — fold induction (PhoP, residues 12 14 15 18 19 NHTVL (Escherichia coli, UniProt P23836); Sort-seq, item: YFP reporter; E. coli; PhoQ-PhoP variant library, added: 10 µM Mg2+; relative to: high Mg2+ state, higher = stronger signaling): 4.32
